Assay results from different studies.
Parts stem from different laboratories: compare values within a part only.

Set 1
Target: RNA binding protein fox-1 homolog 2, RRM domain, GST-SBP tag (RBFOX2, Homo sapiens, UniProt O43251-10, residues 100-194)
Technique: RNA Bind-n-Seq
Molecule type: RNA
Matrix: in vitro
Concentration: 365 nM
Notes: natural RNA segment, single round, ends assumed
Relative to: no-protein control
Reading: higher = stronger binding
Target sequence (chain): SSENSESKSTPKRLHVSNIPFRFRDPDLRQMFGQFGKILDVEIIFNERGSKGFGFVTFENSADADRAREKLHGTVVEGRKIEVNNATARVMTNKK
| Sequence | RBNS enrichment (R) |
| --- | --- |
| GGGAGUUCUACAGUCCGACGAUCUCAAACCCUAUGUUUCUUUCAGAUGAAUCUUCCAAAGUGGAUUAUAUUAAGCAGGUAUUAGAUUUAGGAAAACCUUUCCAUUUCUUAAAGUAUUAUCAAGUGUCAAGAUCUGGAAUUCUCGGGUGCCAA | 0.591 |
| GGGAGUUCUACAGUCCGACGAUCGAUAAUUGAAGGGUACUUCUGUCUGCUCCAAUUUCCAUUCCUUGGUAUACUCAGUAUGUCCUAGUAAGGAAGGCUUUCCACUCUACUGGCUCCUUAAGAAGCAAAAGUAGUGGAAUUCUCGGGUGCCAA | 0.407 |
| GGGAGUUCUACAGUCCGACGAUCCAAGUAGCACCGUUCCUGCCCAGUGGGAAAGCAAUCCCAACAUGUCUGAGAUGUUCGGACUUUUAAAUUCAUGUAAAUAUCUCCUCUUCUGCUGUGUGUACAUAGGACUAUGGAAUUCUCGGGUGCCAA | 0.389 |
| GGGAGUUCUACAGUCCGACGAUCGCUGCUCCUCCAGGAAAGGGUGAGGUCCGUGCUCAGCUAUGCUUGCAGGCCUGCUGUCCUCACUCCAGAAUGAGUGCUGGCUCUGCCUCUGGCUGCAGAGUUGAGGUUGGUGGAAUUCUCGGGUGCCAA | 0.449 |
| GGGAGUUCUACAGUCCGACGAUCUGCUCCUGUAUUAUUAACUUGCUUCAGUUAACUGACUUGAGAAACUAACCAAUUUUUACCUUCUGCCUAGAAUGAUGUACACAUAGGAGAGAAAGCUAUCAUGUUCCCGAUGGAAUUCUCGGGUGCCAA | 0.769 |
| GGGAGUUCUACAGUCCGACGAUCUUUCCCCUCGCCCUAGGGCUCCCUUGCCGCCCUCCUGCAGUAUUUAUGGCCUCGUCCUCCCCACCUAGGCCACGUGUGAGCUGCUCCUGUCUCUGUCUUAUUGCAGCUCCUGGAAUUCUCGGGUGCCAA | 0.871 |
| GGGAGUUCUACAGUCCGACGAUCGAACUUGAGUCUUUUGCCUUGCCUUUAUUACAUGUAAAUUUUGAAUCUCGUGACCAGUGAUUUGGAUUUUAUUUUGUAUUUACAGGGUCUGUCAUUAAUAAUAAUUAACCUGGAAUUCUCGGGUGCCAA | 0.383 |
| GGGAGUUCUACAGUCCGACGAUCUACCACCUGGUGCCUCACUGUCAAACUGAACGAGGGGGUGUGGCCAUGGCCUGAGCCACUGUUCUGGGAGCAGAAGGCAGCUCACUGCCCCCCCCCACACACACACCGACUGGAAUUCUCGGGUGCCAA | 0.194 |

Set 2
Target: Interferon regulatory factor 7, full length, phosphomimetic (IRF7, Homo sapiens, UniProt Q92985, residues 1-503, S471D/S472D/S475D/S476D/S477D/S483D/S484D/S487D)
Sequence of UniProt Q92985 (whole entry, unmodified, looked up): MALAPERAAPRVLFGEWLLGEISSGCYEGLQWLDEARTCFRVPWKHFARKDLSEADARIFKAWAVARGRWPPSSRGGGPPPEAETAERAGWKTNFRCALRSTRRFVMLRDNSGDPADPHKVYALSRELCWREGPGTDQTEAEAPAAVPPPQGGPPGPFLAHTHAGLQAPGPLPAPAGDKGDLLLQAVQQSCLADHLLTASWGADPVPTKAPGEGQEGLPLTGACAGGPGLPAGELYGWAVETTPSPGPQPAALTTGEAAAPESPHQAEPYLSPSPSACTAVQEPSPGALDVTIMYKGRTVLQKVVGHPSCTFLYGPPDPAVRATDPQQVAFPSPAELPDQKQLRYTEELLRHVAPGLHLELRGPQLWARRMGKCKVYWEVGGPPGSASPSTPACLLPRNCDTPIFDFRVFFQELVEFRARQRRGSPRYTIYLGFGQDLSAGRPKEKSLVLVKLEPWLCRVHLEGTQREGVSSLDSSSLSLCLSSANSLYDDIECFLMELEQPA
Technique: protein-binding microarray
Molecule type: double-stranded DNA, one strand shown
Matrix: in vitro
Concentration: 2200 nM top
Notes: 60-bp whole probe
With: salmon DNA 0.4 mg/ml
Relative to: random background probes
Reading: higher = stronger binding
Shared flanks, not repeated: GCCTAGCAC … GTGCTAGGTCTTGATTCGCTTGACGCTGCTG
| Sequence | fitted relative affinity |
| --- | --- |
| GACGGTCTACTACTGCTGAC | 0.337 z-score |
| GATGGTTTCGGTTTCGGGAC | 15.9 z-score |
| GCCGGTATCGGACTGGGGAC | -0.251 z-score |
| GACCGTTTCGGTTCCGGGAC | 8.35 z-score |
| TTAGATCTCAGCCTCGATTA | 0.125 z-score |
| TACGGTATCCTTCTCCTGAC | 1.55 z-score |
| TTAGATATCCTTATCCTTTA | 0.791 z-score |

Single results of other studies
| Substance | target or system | assay | system | conditions | scale | endpoint | result |
| --- | --- | --- | --- | --- | --- | --- | --- |
| PhoQ, residues 284 288 289 292 302 303 GNNTDL | PhoP, residues 12 14 15 18 19 SMASL (Escherichia coli, UniProt P23836) | Sort-seq, item: YFP reporter | E. coli | PhoQ-PhoP variant library, with: 10 µM Mg2+ | relative to: high Mg2+ state, higher = stronger signaling | fold induction | 1.48 |
| MDASRQLMLNEEQ | Saccharomyces cerevisiae | binding, competitive growth deep sequencing | peptide, cyclin D3-Cln2 fusion strain | concentration not given, Cln2 score subtracted | direction not given | growth enrichment score | 0.139 |

A few entries again (set 2):
| Sequence | fitted relative affinity |
| --- | --- |
| TACGGTATCCTTCTCCTGAC | 1.55 z-score |
